Results of several laboratories.
Numbered parts are unrelated; each lists some results of a single study. Substitutions count along the parent as printed.

Sample 1
Target: RNA binding protein fox-1 homolog 2, RRM domain, GST-SBP tag (RBFOX2, Homo sapiens, UniProt O43251-10, residues 100-194)
Method: RNA Bind-n-Seq
Molecule type: RNA
Matrix: in vitro
Tested at: 365 nM
Notes: natural RNA segment, single round, ends assumed
Relative to: no-protein control
Direction: higher = stronger binding
All sequences stand within: GGGAGUUCUACAGUCCGACGAUC … UGGAAUUCUCGGGUGCCAA
Construct (chain): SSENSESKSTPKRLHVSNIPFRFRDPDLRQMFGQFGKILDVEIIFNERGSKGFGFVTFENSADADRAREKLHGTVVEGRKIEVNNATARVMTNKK
| Oligonucleotide | RBNS enrichment (R) |
| --- | --- |
| AUGGAAAUUGGAGCCAUCUUUUAUCCCAGAAGCCUUUGCUGCUGCCAGGGCAAGUGGGCUGGUGUGGACUCUUGUUUAGGAGGCUGAGGUUCUUGUCACUCCUUAGCCAG | 0.283 |
| GUUUUCCAGGGAGGGAAUGAUAUAAUUUUCAUGACAAUGUCAUGUGCUGAUAGAAUUUCUCCAUUGAUGAACCUCUAGUAUGUGUGUAUACUUUAUUUACCCAUGUGUAU | 0.634 |
| UAAUCAUUUUGGAUUUUUUUCUUUGAAUUAUUGGCAGGGAAUAUACUUAUGUAUGGAAGAUUACUGCUCUGAGUGAAAUAAAAGUUAUUAGUGCGAGGCAAACAUAACUC | 0.607 |
| CACAUGCACGUAUGCGUGCACACACACACACACACACACACAUCUAAUCACCAUAUUGUAAAAUUUUGUGUUUUUAAAGCCAACUCUUUGCUCCGGUUUUUUCAUACGAC | 1.22 |
| AGCACCUGUGGUGGCUGCAAGUGGAAUCCUGGGGCCAAGGCUGCAGCUCAGGGCAAUGGCAGACCAGAUUGUGGGUCUCCAGCCUUGCAUGGCUGGCAGCCAGAUCCUGG | 1.07 |
| AUAUACCACACCUCAUAGUUAGGCUUGGCAGUGGCCUGACUCUUGUAAAGACAAUGUAGAAAACACACUAAUUACUGUUUGUAGUGUCUUUGGAUGCUCACGGGUUCUGU | 0.505 |
| CCCACCUCCAUGGUGGCCCAGGCUGCAGGGCUCACGGUGGGCCCACGGUGGAGGCCUCAGGCAGCUUUCUCUCCAGCUACCCAUUGGCUUAGGACACACAGAUAAAGUAG | 0.411 |
| GCCAUCUUACAGGGAAAAGUUAUAACCACUAUUCCCCUAUAACAUAAUGCUAAUGAUUGUACUUAGUACAUUUUUAUACUUUUAUGAUAUUUUACUGAUUGGAAAUGUCA | 0.293 |

Sample 2
Target: RING finger protein unkempt homolog, zinc fingers 1-6, GST-SBP tag (UNK, Homo sapiens, UniProt Q9C0B0, residues 30-357)
Sequence of UniProt Q9C0B0 (30-357, looked up): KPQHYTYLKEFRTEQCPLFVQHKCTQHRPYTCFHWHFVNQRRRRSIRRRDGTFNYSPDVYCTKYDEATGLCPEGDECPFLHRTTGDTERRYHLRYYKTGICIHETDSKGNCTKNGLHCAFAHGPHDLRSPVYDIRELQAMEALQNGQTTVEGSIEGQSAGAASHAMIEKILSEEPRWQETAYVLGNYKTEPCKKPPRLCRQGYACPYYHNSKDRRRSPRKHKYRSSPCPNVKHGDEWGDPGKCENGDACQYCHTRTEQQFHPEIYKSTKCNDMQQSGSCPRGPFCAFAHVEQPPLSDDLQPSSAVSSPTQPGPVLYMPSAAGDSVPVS
Method: RNA Bind-n-Seq
Molecule type: RNA
Matrix: in vitro
Tested at: not given
Notes: RNA with constant flanks, human and mouse sites, ends assumed
Relative to: input RNA pool
Direction: higher = stronger binding
All sequences stand within: GGGAGUUCUACAGUCCGACGAUC … CAACAGAGGAUUGAGCAUCA
| Oligonucleotide | bound/input enrichment |
| --- | --- |
| UGUGUUCUGAAUGAGAUGAUGCAAAAUGAAGAAAAAUAUGAAAAAAUCUUAAAGGCAUUGAACAGUCGUCGUAUUAUUCCCAGACCAUUUGUAGCUCAAAAACUUGCAUCAAGUGAUGAC | 0.154 ratio |
| UGUUUCUUUCUUGAAAGAAGUGGAGUCUCCUUAUGAAGUCCAUGACUAUACCAGGGCCUAUUUAGGAGAUACUUCCGAGGCCAAGGAGUUUGCCAAGCAGUUCCUUGAACGCCGUGCCAA | 0.103 ratio |
| GCGGAGAAGGACUCCCUGGACCCCUCCUUCACGCACGCCCUGCGCCUGGUGAACCAAGAAAUAGAAAAGUUUCAAAAAGGAGAAGGCAAGGAUGAAGAAAAGUACAUCGAUGUGGUGAUU | 0.219 ratio |
| AGUGAAUGAGGUGGAGCUUCUGGUGAUGAAGGCCCUUUCGGUGGGGCUGGUGAAAGGCAGUAUAGACGAGGUGGACAAACGAGUCCACAUGACCUGGGUGCAGCCCCGAGUGUUGGAUUU | 0.21 ratio |
| CUCCCGGGGGGAGUCCAGGCCUUGGCUUUACCCAACGAAGAGGGUGCCACACCAUUAGACUUAGCUUUACGUGAAGGACACUCCAAGCUGGUGGAAGACGUCACAAAUUUUCAGGGCAGA | 0.622 ratio |
| GUUAAUCACAGCUUGGAUUUGCAGCCAGUUACUUACUCGGAACCUGCAUUCUGGUGUUCAAUCGCAUACUAUGAACUAAACCAGAGGGUUGGAGAGACCUUCCAUGCGUCACAGCCCUCG | 0.138 ratio |
| GACAUUACCACUAUUAAACUUCUCAAUGAAACUAGAGACAUGUUGGAAAGCCCAGAUUUUAGUACAGUUUUGAAUACCUGUUUAAACCGAGGUUUUAGUAGACUUCUAGACAAUAUGGCU | 11.6 ratio |
| ACCAGCUAUGGUCUGCCACAAGCCAGGAGGAUAUCAUUGGCCACUCCUCGACAGCUUUAUAAAUCUUCCAAUAUGACUCAGCGCUGGCAAAGAAGGGAAAUUUCAAACUUCGAAUAUUUG | 0.275 ratio |

Sample 3
Target: Ras GTPase-activating protein-binding protein 1, RRM domain (G3BP1, Homo sapiens, UniProt Q13283)
Sequence of UniProt Q13283 (whole entry, looked up): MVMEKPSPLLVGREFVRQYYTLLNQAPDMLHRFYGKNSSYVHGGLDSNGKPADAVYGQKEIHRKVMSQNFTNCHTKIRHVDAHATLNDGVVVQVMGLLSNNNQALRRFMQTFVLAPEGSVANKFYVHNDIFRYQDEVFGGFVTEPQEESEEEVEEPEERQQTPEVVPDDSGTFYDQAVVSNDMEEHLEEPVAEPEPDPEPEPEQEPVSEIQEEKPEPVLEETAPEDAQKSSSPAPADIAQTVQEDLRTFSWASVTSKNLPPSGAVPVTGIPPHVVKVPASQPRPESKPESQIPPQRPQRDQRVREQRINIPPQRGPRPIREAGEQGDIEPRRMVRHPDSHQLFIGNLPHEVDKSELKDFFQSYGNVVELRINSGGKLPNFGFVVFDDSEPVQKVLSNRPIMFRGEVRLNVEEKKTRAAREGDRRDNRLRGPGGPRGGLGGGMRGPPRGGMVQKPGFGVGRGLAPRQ
Method: RNA Bind-n-Seq
Molecule type: RNA
Matrix: in vitro
Tested at: 1 µM
Notes: whole 134-nt RNA, ends assumed
Added: 150 mM KCl
Relative to: input library
Direction: higher = stronger binding
All sequences stand within: GGGAGUUCUACAGUCCGACGAUC … UGGAAUUCUCGGGUGUCAAGG
| Oligonucleotide | log2 enrichment |
| --- | --- |
| UAACUUUAGAGGAGGAUCUGAUGGAUAUGGCAGUGGACGUGGAUUUGGGGAUGGCUAUAAUGGGUAUGGAGGAGGACCUGGAGGUGUCAA | -0.278 |
| GUCCUGUGCUACACAUCGUAUGUACCGAAUCGGGGAAAAAGGGGAGGGGAAAAAGGGGAAAGUAUUAUGUUACGCCGUUCGGAUCUGCAC | 0.736 |
| CUGUGCUACACAUCGUAUGUACCGAAUCGGGGUUUUUUUGGGUUUUUUUGGGUUUUUUUGGAAAGUAUUAUGUUACGCCGUUCGGAUCUG | -0.167 |
| UCCUUUGUGUUUACAAAAGCACUGACCCUUUACCUUUUCUUUAGCAAGAAGAAUGGAAUGAACAUAAUGCCAAAAUAAUUAAAUAUAUAA | 0.0123 |
| UAACUUUAGAGGAGGAUCUGAUGGAUAUGGCAGUGGACGUGGAUUUGGGGAUGGCUAUAAUGGGUAUGGAGGAGGACCUGGAGCUGGCAA | -0.316 |
| AAGUCCUGUGCUACACAUCGUAUGUACCGAAUCGGGAAAGGGUGGGUUUUUUUGGGAAAGUAUUAUGUUACGCCGUUCGGAUCUGCACUU | 0.711 |

Further values, each from its own experiment
CCNF: CCNF, cyclin fold, Cln2 fusion (human)
P1: CABLES2 docking peptide (human); ICAKRSLCAAFSV; partner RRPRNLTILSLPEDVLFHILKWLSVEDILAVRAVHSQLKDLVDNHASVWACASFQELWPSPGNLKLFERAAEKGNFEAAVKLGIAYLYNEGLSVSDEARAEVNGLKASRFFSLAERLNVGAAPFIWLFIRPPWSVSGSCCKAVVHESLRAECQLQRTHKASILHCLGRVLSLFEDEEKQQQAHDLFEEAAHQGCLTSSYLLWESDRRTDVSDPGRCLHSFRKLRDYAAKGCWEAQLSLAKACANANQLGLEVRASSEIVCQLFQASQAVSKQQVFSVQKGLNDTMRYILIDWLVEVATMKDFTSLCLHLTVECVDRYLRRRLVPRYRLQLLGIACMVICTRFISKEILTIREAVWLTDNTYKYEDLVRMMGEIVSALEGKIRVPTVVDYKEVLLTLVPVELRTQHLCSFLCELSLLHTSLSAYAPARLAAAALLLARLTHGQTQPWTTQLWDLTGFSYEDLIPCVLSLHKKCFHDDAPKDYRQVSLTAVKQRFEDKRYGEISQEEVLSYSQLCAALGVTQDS
| Substance | tested on | test | test system | conditions | how to read | quantity | value |
| --- | --- | --- | --- | --- | --- | --- | --- |
| GFGFLLFICKLTF | Saccharomyces cerevisiae | binding, competitive growth deep sequencing | peptide, cyclin D3-Cln2 fusion strain | concentration not given, peptide library 2 | direction not given | growth enrichment score | -0.0258 |
| P1 S12A | CCNF | yeast growth competition, sequencing | yeast | strong parent motif | relative to: not given, higher = stronger binding | normalised enrichment score | 3.08 |
| P1 F11A | CCNF | yeast growth competition, sequencing | yeast | strong parent motif | relative to: not given, higher = stronger binding | normalised enrichment score | 0.622 |
| PPVIIKYIIINRF | Saccharomyces cerevisiae | binding, competitive growth deep sequencing | peptide, cyclin D3-Cln2 fusion strain | concentration not given, peptide library 2 | direction not given | growth enrichment score | -0.114 |
